Experimental data gathered from unrelated publications.
Compare with care: the assays were run in different laboratories.

CC[C@H](C)[C@@H]1NC(=O)CNC(=O)[C@H](CCCCN)NC(=O)[C@H](C)NC(=O)[C@H](CCC(=O)O)NC(=O)[C@H](Cc2ccccc2)NC(=O)[C@H](CO)NC(=O)[C@H](CC(C)C)NC(=O)[C@H](C(C)C)NC(=O)[C@H](CC(=O)O)NC(=O)[C@@H](NC(=O)[C@@H](NC(=O)[C@@H](N)C(C)C)[C@@H](C)O)CSSC[C@@H]2NC(=O)[C@H](CO)NC(=O)CNC(=O)CNC(=O)[C@H](CCCCN)NC(=O)[C@H](CCCCN)NC(=O)[C@H](CCCNC(=N)N)NC(=O)[C@H](CC(C)C)NC(=O)[C@H](C)NC(=O)[C@H]([C@@H](C)CC)NC(=O)[C@@H]3CSSC[C@@H](C(=O)N[C@@H](CCCNC(=N)N)C(=O)N[C@@H](CC(N)=O)C(=O)O)NC(=O)[C@H](C(C)C)NC(=O)[C@H](CSSC[C@H](NC(=O)[C@H](C)NC(=O)[C@H](CO)NC(=O)[C@H](Cc4c[nH]cn4)NC(=O)[C@H](CC(N)=O)NC(=O)[C@H](C(C)C)NC(=O)[C@H](C)NC1=O)C(=O)N[C@@H](C)C(=O)N[C@@H](CC(C)C)C(=O)N[C@@H](Cc1c[nH]cn1)C(=O)N3)NC(=O)[C@H](C(C)C)NC(=O)CNC(=O)[C@H](CC(N)=O)NC(=O)[C@H](CCC(N)=O)NC2=O
MIC (Salmonella typhimurium; broth microdilution; KCTC 1926; 16 h, 37 °C): 3.1 µM

CC[C@H](C)[C@H](NC(=O)[C@H](CCCN)NC(=O)[C@H](CC(N)=O)NC(=O)[C@H](Cc1c[nH]c2ccccc12)NC(=O)[C@H](Cc1ccccc1)NC(=O)[C@H](CCCN)NC(=O)[C@H](CCCCNC(=N)N)NC(=O)[C@H](CC(C)C)NC(=O)[C@H](Cc1c[nH]c2ccccc12)NC(=O)[C@H](CCCN)NC(=O)[C@H](CCCCNC(=N)N)NC(=O)[C@H](CC(C)C)NC(=O)CNC(C)=O)C(=O)N[C@@H](CCCN)C(=O)N[C@@H](CCCCNC(=N)N)C(N)=O
MIC (Enterobacter aerogenes; broth microdilution; multidrug-resistant): 6.25 µM

Cc1c2oc3c(C)ccc(C(=O)N[C@@H]4C(=O)N[C@H](C(C)C)C(=O)N5[C@H](C(=O)N(C)CC(=O)N(C)[C@@H](C(C)C)C(=O)O[C@@H]4C)[C@@H](O)C[C@@H]5C)c3nc-2c(C(=O)N[C@@H]2C(=O)N[C@H](C(C)C)C(=O)N3CC(=O)C[C@H]3C(=O)N(C)CC(=O)N(C)[C@@H](C)C(=O)O[C@@H]2CO)c(N)c1=O
MIC (Saccharomyces cerevisiae; broth microdilution; ATCC 204508; 16 to 48 h): > 9.33 µg/mL

C[C@@H](c1ccn(Cc2ccc(OC(F)(F)F)cc2)n1)[C@](O)(Cn1cnnn1)c1ccc(F)cc1F
MIC (Candidozyma auris; growth; 888 drug-resistant isolate; 24 h, 30 °C, ≥50% inhibition): 1 µg/mL

CC[C@H](C)[C@H](NC(=O)[C@H](CO)NC(=O)[C@H](CO)NC(=O)[C@H](Cc1ccccc1)NC(=O)CN)C(=O)N[C@@H](Cc1ccccc1)C(=O)N[C@@H](CCCNC(=N)N)C(=O)NCC(=O)N[C@H](C(=O)N[C@@H](C)C(=O)N[C@@H](CCCCN)C(N)=O)C(C)C
MIC (Escherichia coli; ATCC 8739; added: 6 µM NH4Cl): > 128 µM

C[C@@H](c1ccn(Cc2ccc(Cl)cc2Cl)n1)[C@](O)(Cn1cnnn1)c1ccc(F)cc1F
MIC (Candidozyma auris; growth; 791 drug-resistant isolate; 24 h, 30 °C, ≥50% inhibition): 16 µg/mL

CC(C)C[C@@H]1NC(=O)[C@H](C)NC(=O)[C@H](NC(=O)[C@H](CO)NC(=O)[C@@H](CCCCN)NC(=O)[C@@H](C)NC(=O)[C@@H](N)Cc2ccccc2)[C@H](C(N)=O)OC(=O)[C@H](CC(C)C)NC1=O
MIC (Bacillus subtilis Staphylococcus epidermidis; ATCC 14990; tested as TFA salt): 16 µg/mL

CC[C@H](C)[C@H](NC(=O)[C@H](CCCCN)NC(=O)[C@H](CC(N)=O)NC(=O)[C@H](CC(C)C)NC(=O)[C@H](Cc1ccccc1)NC(=O)[C@H](CCCCN)NC(=O)[C@H](CCCCNC(=N)N)NC(=O)[C@H](CC(C)C)NC(=O)[C@H](CC(C)C)NC(=O)[C@H](CCCCN)NC(=O)[C@H](CCCCNC(=N)N)NC(=O)[C@H](CC(C)C)NC(=O)CNC(C)=O)C(=O)N[C@@H](CCCCN)C(=O)N[C@@H](CCCCNC(=N)N)C(N)=O
MIC (Citrobacter freundii; bacterial growth, broth microdilution; multidrug-resistant): 3.12 µM

CCCCCCCCCCCCCCC(=O)O.O=C1CCCC2C3CCCN4CCCC(CN12)C34 (stereo not shown)
MIC (Cutibacterium acnes; bacterial growth, broth dilution; ATCC 6919): inactive

CC(=O)OC1C(C)C(OC2CC3OCOC3C(C)O2)C=COC2(C)Oc3c(C)c(O)c4c(c3C2=O)C(=O)C=C(NC(=O)C(C)=CC=CC(C(C)OC(=O)C(C)(C)CC(=O)O)C(O)C(C)C(O)C1C)C4=O (stereo not shown)
MIC (Staphylococcus and Streptococcus pyogenes): ~1 µg/mL

Excerpt of the above:
Cc1c2oc3c(C)ccc(C(=O)N[C@@H]4C(=O)N[C@H](C(C)C)C(=O)N5[C@H](C(=O)N(C)CC(=O)N(C)[C@@H](C(C)C)C(=O)O[C@@H]4C)[C@@H](O)C[C@@H]5C)c3nc-2c(C(=O)N[C@@H]2C(=O)N[C@H](C(C)C)C(=O)N3CC(=O)C[C@H]3C(=O)N(C)CC(=O)N(C)[C@@H](C)C(=O)O[C@@H]2CO)c(N)c1=O
MIC (Saccharomyces cerevisiae; broth microdilution; ATCC 204508; 16 to 48 h): > 9.33 µg/mL
